Published values gathered from unrelated publications.
Parts stem from different laboratories: compare values within a part only. Positions count from the first letter of the parent shown.

Set 1 — method: protein-binding microarray; form: double-stranded DNA, one strand shown; matrix: in vitro; concentration: 250 nM; setting: 60-bp whole probe; with: salmon DNA 0.4 mg/ml; baseline: random background probes; reading: higher = stronger binding; shared flanks, not repeated: GCCTAGCAC … GTCTTGATTCGCTTGACGCTGCTG
Target: Interferon regulatory factor 5, full length, phosphomimetic (IRF5, Homo sapiens, UniProt Q13568-2, residues 1-514, K96S/S451D/S453D/S456D/S462D)
Oligonucleotide | log fluorescence
GACGGTTTCGGGTGTCGGGACGTGCTA | 6.93 z-score
TTAGGTTTCGGTTTCGGTTTGTGCTAG | 11.9 z-score
TTTGGACTGCTTCTCCTTTAGTGCTAG | -0.187 z-score
GCCGGTTTCGGGTATCGGGACGTGCTA | 8.86 z-score
TTCGGTTCCGGTTTCGGTTAGTGCTAG | 9.33 z-score
GACGGTTTTGGTCTCGGGACGTGCTAG | 1.29 z-score
GATGATATCAGTTTCGAGACGTGCTAG | 6.89 z-score
GACGGTATCGGGTATCGGGAGGTGCTA | 3.53 z-score
TTAGGCCTGGGACTGGGTTAGTGCTAG | -0.7 z-score
TTAGATTTTTTTTCCTAATTGTGCTAG | 1.06 z-score
GACGGTTTCCTTATCCTTACGTGCTAG | 0.869 z-score
GACGATTTCAGACTCGAGACGTGCTAG | 0.256 z-score

Set 2 — method: RNAcompete; form: RNA; matrix: in vitro; concentration: 20 nM; setting: 7-mer, probes averaged, single round; baseline: mean of 7-mers; reading: higher = stronger binding
Target: PABPC1L2, full length, GST fusion (mouse, UniProt A0ABA7IW68)
Target sequence (chain): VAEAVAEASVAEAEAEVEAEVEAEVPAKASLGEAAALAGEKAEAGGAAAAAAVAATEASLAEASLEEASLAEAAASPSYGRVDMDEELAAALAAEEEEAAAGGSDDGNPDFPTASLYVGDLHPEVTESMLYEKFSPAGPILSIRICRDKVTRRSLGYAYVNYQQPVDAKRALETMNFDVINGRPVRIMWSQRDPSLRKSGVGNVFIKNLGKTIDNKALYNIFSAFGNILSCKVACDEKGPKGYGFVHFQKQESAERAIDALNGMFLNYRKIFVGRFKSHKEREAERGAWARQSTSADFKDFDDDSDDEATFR
Oligonucleotide | 7-mer Z-score
UUACGUU | -0.398
ACCUUUG | -0.324
ACGGUAU | -0.0844
UCUCGUC | -0.508
AUUGCUC | -0.0953
CUAGGGG | 0.207
CAGGAAC | 0.285
ACUGUGG | 0.0406
GUCAUGG | -0.0554
CUUGUGC | -0.378
GGCCUGC | -0.0844
GCUCGCU | -0.309
UCAGUAA | 0.0189
CUCGACG | -0.199
GGCCUGA | -0.0772
UGUAAUU | -0.15
AACAGGU | 0.586
CAAGUGC | -0.0464
AGUUUCC | -0.373
UUAAGCA | -0.0627
AUCGAGC | -0.126
UUACAUC | -0.219
CGAUUUG | -0.262

Set 3 — target: CCNA2, cyclin fold, Cln2 fusion (human); method: yeast growth competition, sequencing; matrix: yeast; setting: strong parent motif; baseline: not given; reading: higher = stronger binding
Parent: CDKN1B docking peptide (human); PSACRNLFGPVDH; partner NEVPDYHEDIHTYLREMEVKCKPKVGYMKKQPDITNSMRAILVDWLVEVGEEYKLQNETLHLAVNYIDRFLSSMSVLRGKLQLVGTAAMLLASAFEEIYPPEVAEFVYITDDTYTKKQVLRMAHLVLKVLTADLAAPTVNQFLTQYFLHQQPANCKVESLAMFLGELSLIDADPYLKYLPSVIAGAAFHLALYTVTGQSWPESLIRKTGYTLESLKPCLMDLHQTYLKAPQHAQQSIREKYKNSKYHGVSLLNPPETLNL
Change | normalised enrichment score
D12I | 3.48
L7D | 0.237
P10E | 3.17
F8M | 0.272
N6R | 4.33
R5V | 0.067
V11L | 3.95
F8G | -0.0859
F8A | 0.499
P1A | 3.84
C4M | 1.19
A3Y | 2.8
R5L | 0.195
S2G | 3.91
F8I | 0.695
C4F | 1.43
R5E | 0.379

Set 4 — method: DHFR PCA, deep sequencing; matrix: yeast; with: (+)-ABA 200 µM; baseline: wild-type fitted maximum; reading: higher = stronger binding
Target: ABI1, truncated, D143A, DHFR fusion (Arabidopsis thaliana)
Setting: methotrexate growth selection, single substitutions
Parent: PYL1, truncated, DHFR fusion (Arabidopsis thaliana); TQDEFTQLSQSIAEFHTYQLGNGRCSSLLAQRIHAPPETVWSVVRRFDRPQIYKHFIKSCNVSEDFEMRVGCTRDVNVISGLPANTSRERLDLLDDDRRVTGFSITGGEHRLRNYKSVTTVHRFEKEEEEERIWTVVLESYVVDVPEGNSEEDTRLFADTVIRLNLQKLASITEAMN
Change | relative binding score [%]
E130I | 111
K58H | 88.7
E125P | 106
S11Q | 104
K54I | 7.5
Q31N | 58
D96W | 25.8
A158Y | 2.94
V142G | 71.4
Y115Q | -7.84
N114Y | 41.3
V76M | 73.3
E129G | 112
R113C | 97.8
T119F | 26.8
Q7I | 99.9
V76P | -4.54
N61W | 97.8

Set 5 — method: competition protein-binding microarray; form: double-stranded DNA, one strand shown; matrix: in vitro; concentration: 2 µM; with: Pho4 competitor, 0.05 µM; reading: higher = stronger binding; shared flanks, not repeated: … GTCTTGATTCGCTTGACGCTGCTG
Target: Centromere-binding protein 1, full length, His-tagged (CBF1, Saccharomyces cerevisiae, UniProt P17106, residues 1-351)
Sequence of UniProt P17106 (whole entry, looked up): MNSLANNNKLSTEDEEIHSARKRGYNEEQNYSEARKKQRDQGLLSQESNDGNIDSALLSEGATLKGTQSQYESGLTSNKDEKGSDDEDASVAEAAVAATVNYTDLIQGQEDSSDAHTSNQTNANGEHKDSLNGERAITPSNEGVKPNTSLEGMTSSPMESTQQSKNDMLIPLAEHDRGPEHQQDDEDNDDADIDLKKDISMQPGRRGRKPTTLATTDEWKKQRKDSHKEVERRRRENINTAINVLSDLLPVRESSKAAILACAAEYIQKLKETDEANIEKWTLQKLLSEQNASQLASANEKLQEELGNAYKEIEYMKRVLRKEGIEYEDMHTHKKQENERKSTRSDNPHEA
Setting: whole 60-bp probe, lowest competitor level
Oligonucleotide | fluorescence intensity [a.u.]
CTTTCCCGATCTTGATCGGTGGGTGTAGCACATTTG | 53.6
GTTTGCAGCTTACTTCACGTGTGGATGGAAAATTGA | 529
CTTTCCCGATCTTGTCACCGGACTTTAGCACATTTG | 88.5
GTGTATCTTTTCTTTGCTAATTATACGCTGACATGA | 81.8
TGCTACTGCTGCTGTTGTGTGACAGGAAACGCGTTT | 63.5
CATCGGCTCAACTTGATCATGCAATTAGCAAGCAAC | 75.3
CGGGGTTAAGTTTGTCACCAAACTTGCTTGCAGCAG | 72.6
GATAGTAAACTCTGTCATGTTAATCGTTTGGATTTG | 77.9
CACTTTTTAAACCATCACGGCCTCTGACGTAATCGG | 81.8
CAATCTGGTGGGGGCACCGTGAATATCACCGTCGTC | 113
AGCAGATGGTAATCGCACGTTGAAAATGCTGAATAT | 106
GTCTTGTCTCATTTTCACGTGATATTCCCCACTTCA | 2400
GACACATCGCTAGAAAAATTGGCATTACTAGAAAGC | 82.3
CATACCCAACCTTGCGTCGTGGGTGAAGATATTTGT | 58.2
CACATAACCACTTGTCACCTGTGCATTCTTACTTTT | 142
CTTCTGTAAATTTGCTACGTGGGTGGACGCGCCCCG | 93.1
CGGCTGGGTCGGGCCCACGTGGACCCGGCGGCAAGC | 437

Further values, each from its own experiment
Substance | target | test | system | conditions | scale | quantity | value
PhoQ, residues 284 288 289 292 302 303 TNASYF | PhoP, residues 12 14 15 18 19 VQGLL (Escherichia coli, UniProt P23836) | Sort-seq, item: YFP reporter | E. coli | PhoQ-PhoP variant library, with: 10 µM Mg2+ | baseline: high Mg2+ state, higher = stronger signaling | fold induction | 7.39

Repeated from above (set 1):
Oligonucleotide | log fluorescence
GACGGTTTCGGGTGTCGGGACGTGCTA | 6.93 z-score
TTAGGTTTCGGTTTCGGTTTGTGCTAG | 11.9 z-score
TTTGGACTGCTTCTCCTTTAGTGCTAG | -0.187 z-score
GCCGGTTTCGGGTATCGGGACGTGCTA | 8.86 z-score
TTCGGTTCCGGTTTCGGTTAGTGCTAG | 9.33 z-score
GACGGTTTTGGTCTCGGGACGTGCTAG | 1.29 z-score
GATGATATCAGTTTCGAGACGTGCTAG | 6.89 z-score
